Results from different studies.
Lines come from different studies, so protocols differ. Numbers after ± are the reported error.
ACTA1: ACTA1, TMR label (Oryctolagus cuniculus, UniProt P68135)
T1: Psmc3ip/Mnd1 R64A/Y70A/Y71A (Mus musculus); chain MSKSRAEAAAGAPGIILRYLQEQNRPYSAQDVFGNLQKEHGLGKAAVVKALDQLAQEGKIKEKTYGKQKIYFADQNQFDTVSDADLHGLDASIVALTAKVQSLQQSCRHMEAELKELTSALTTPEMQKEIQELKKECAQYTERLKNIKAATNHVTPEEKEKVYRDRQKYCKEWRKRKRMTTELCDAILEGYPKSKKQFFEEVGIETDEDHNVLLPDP; chain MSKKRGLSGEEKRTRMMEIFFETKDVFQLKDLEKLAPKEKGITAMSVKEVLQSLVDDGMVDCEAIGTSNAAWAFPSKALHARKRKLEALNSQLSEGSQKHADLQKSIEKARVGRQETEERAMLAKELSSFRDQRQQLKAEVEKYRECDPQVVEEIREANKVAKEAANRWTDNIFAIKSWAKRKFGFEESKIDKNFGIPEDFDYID
B1: FBN1 147-489 (Homo sapiens, UniProt P35555); chain QPVCESGCLNGGRCVAPNRCACTYGFTGPQCERDYRTGPCFTVISNQMCQGQLSGIVCTKTLCCATVGRAWGHPCEMCPAQPHPCRRGFIPNIRTGACQDVDECQAIPGLCQGGNCINTVGSFECKCPAGHKLNEVSQKCEDIDECSTIPGICEGGECTNTVSSYFCKCPPGFYTSPDGTRCIDVRPGYCYTALTNGRCSNQLPQSITKMQCCCDAGRCWSPGVTVAPEMCPIRATEDFNKLCSVPMVIPGRPEYPPPPLGPIPPVLPVPPGFPPGPQIPVPRPPVEYLYPSREPPRVLPVNVTDYCQLVRYLCQNGRCIPTPGSYRCECNKGFQLDLRGECI
B2: protein mature (Micrurus tener tener, UniProt G9I930); disulfide bonds; chain NLNQFRLMIKCTNDRVWADFVDYGCYCVARDSNTPVDDLDRCCQAQKQCYDEAVKVHGCKPLVMFYSFECRYLASDLDCSGNNTKCRNFVCNCDRTATLCILTATYNRNNHKIDPSRCQ
B3: RRN3 18-627 (Saccharomyces cerevisiae, UniProt P36070); sequence looked up; chain PIDQKKRKVQFSDSTGLVTLQPEEIKDEVFSAAMYSRFVKSALDDLDKNDSTQIGIIANQVALPSKNPERINDKNLNILLDILSSNINRIESSRGTFLIQSIINFEKWWELPPHTLSKYIYFIKILCSSIPKWWQDVSMILVSCFILPIKQTVCHHDMLKYFLRMIPSSMGFIDTYLAKFFPNKNDTRRKLVNYTSNLLKLRGYCSELGFQIWSLLIEKIISIDVELQNELDELDDDVDDDDLEEVDLEDDDDLDDDSGDDDDENCGNSNEELRSGAADGSQSDSEDMDIIEGMDGTEEYNVELTQGIKELSTKLDSILTLVSTHVEEQVTPESLESGEGVGVFNTLTTLFKTHVLPTYYTRSIQYIMFHVSQQQLELMDSFLVTLIDISFAVNEAAEKKIKSLQYLGSYIARAKKLSRTQIIFVASYLTSWLNRYVIEREEEVDQRGGMERFKHFYAAFQALCYIFCFRHNIFRDTDGNWECELDKFFQRMVISKFNPLKFCNENVMLMFARIAQQESVAYCFSIIENNNNERLRGIIGKADSDKKENSAQANTTSSSWSLATRQQFIDLQSYFPYDPLFLKNYKILMKEYYIEWSEASGEYESDGSDD
B4: Fmnl3 555-954 M742A (Mus musculus, UniProt Q6ZPF4); chain GLSAIRIKKPIKTKFRLPVFNWTALKPNQINGTVFSELDDEKILEDLDLDRFEELFKTKAQGPALDLICSKNKTAQKAASKVTLLEANRAKNLAITLRKAGRSAEEICRAIHTFDLQTLPVDFVECLMRFLPTEAEVKLLRQYERERQPLEELAAEDRFMLLFSKVERLTQRMAGMAFLGNFQDNLQALTPQLNAIIAASASVKSSQKLKQMLEIILALGNYMNSSKRGAVYGFKLQSLDLLLDTKSTDRKMTLLHFIALTVKEKYPELANFWQELHFVEKAAAVSLENVLLDVKELGRGMELIRRECSIHDNSVLRNFLSTNEGKLDKLQRDAKTAEEAYNAVVRYFGESPKTTPPSVFFPVFVRFIRSYKEAEQENEARKKQEEVMREKQLAQEAKKL
B5: colicin N T and R domains (Escherichia coli); chain MGSNGADNAHNNAFGGGKNPGIGNTSGAGSNGSASSNRGNSNGWSWSNKPHKNDGFHSDGSYHITFHGDNNSKPKPGGNSGNRGNNGDGASAKVGEITITPDNSKPGRYISSNPEYSLLAKLIDAESIKGTEVYTFHTRKGQYVKVTVPDSNIDKMRVDYVNWKGPKYNNKLVKRFVSQFLL
B6: HNRNPH1 192-280 (Homo sapiens, UniProt P31943); chain RTHYDPPRKLMAMQRPGPYDRPGAGRGYNSIGRGAGFERMRRGAYGGGYGGYDDYNGYNDGYGFGSDRFGRDLNYCFSGMSDHRYGDGG
B7: DMC1 (Homo sapiens, UniProt Q14565); chain MKEDQVVAEEPGFQDEEESLFQDIDLLQKHGINVADIKKLKSVGICTIKGIQMTTRRALCNVKGLSEAKVDKIKEAANKLIEPGFLTAFEYSEKRKMVFHITTGSQEFDKLLGGGIESMAITEAFGEFRTGKTQLSHTLCVTAQLPGAGGYPGGKIIFIDTENTFRPDRLRDIADRFNVDHDAVLDNVLYARAYTSEHQMELLDYVAAKFHEEAGIFKLLIIDSIMALFRVDFSGRGELAERQQKLAQMLSRLQKISEEYNVAVFVTNQMTADPGATMTFQADPKKPIGGHILAHASTTRISLRKGRGELRIAKIYDSPEMPENEATFAITAGGIGDAKE
B8: Fmnl3 555-954 (Mus musculus, UniProt Q6ZPF4); chain GLSAIRIKKPIKTKFRLPVFNWTALKPNQINGTVFSELDDEKILEDLDLDRFEELFKTKAQGPALDLICSKNKTAQKAASKVTLLEANRAKNLAITLRKAGRSAEEICRAIHTFDLQTLPVDFVECLMRFLPTEAEVKLLRQYERERQPLEELAAEDRFMLLFSKVERLTQRMAGMAFLGNFQDNLQMLTPQLNAIIAASASVKSSQKLKQMLEIILALGNYMNSSKRGAVYGFKLQSLDLLLDTKSTDRKMTLLHFIALTVKEKYPELANFWQELHFVEKAAAVSLENVLLDVKELGRGMELIRRECSIHDNSVLRNFLSTNEGKLDKLQRDAKTAEEAYNAVVRYFGESPKTTPPSVFFPVFVRFIRSYKEAEQENEARKKQEEVMREKQLAQEAKKL
B9: kaiA (Synechococcus elongatus, UniProt Q79PF6); chain MLSQIAICIWVESTAILQDCQRALSADRYQLQVCESGEMLLEYAQTHRDQIDCLILVAANPSFRAVVQQLCFEGVVVPAIVVGDRDSEDPDEPAKEQLYHSAELHLGIHQLEQLPYQVDAALAEFLRLAPVETMADHIMLMGANHDPELSSQQRDLAQRLQERLGYLGVYYKRDPDRFLRNLPAYESQKLHQAMQTSYREIVLSYFSPNSNLNQSIDNFVNMAFFADVPVTKVVEIHMELMDEFAKKLRVEGRSEDILLDYRLTLIDVIAHLCEMYRRSIPRET

Molecule	partner	test	test system	conditions	how to read	measurement	value
B1 (FBN1 147-489)	FBLN5 42-448 (Homo sapiens, UniProt Q9UBX5)	ELISA				binding	binds
Maackia amurensis agglutinin (Maackia amurensis)	KLK3 (Homo sapiens, UniProt P07288)	peptide or protein array			reference: SNA bound to PSA, higher = more MAA binding	relative binding	7.6 ± 0.1%
B2 (protein mature)	protein, N-terminal pyroglutamate, disulfides (Micrurus tener tener, UniProt G9I929)	ITC		pH 7.4, 15 °C, NaCl 150 mM		molecule per partner	1.02 ± 0.05
B3 (RRN3 18-627)	RPA43 (Saccharomyces cerevisiae, UniProt P46669)	co-IP		120 min, starvation, cross-linked	reference: 0 min, higher = more co-precipitation	co-precipitated fraction	64%
B4 (Fmnl3 555-954 M742A)	ACTA1	AUC		KCl 50 mM		fraction bound	0.98 fraction
CD24/Siglec-10 blocking peptide, D-amino acids	Cd274 (Mus musculus, UniProt Q9EP73)	MST				Kd	22.9 µM
B5 (colicin N T and R domains)	ompF mature, trimer (Escherichia coli, UniProt P02931)	ITC				ΔH	-72.3 kJ/mol
B6 (HNRNPH1 192-280)	HNRNPF 192-415 (Homo sapiens, UniProt P52597)	trapping in hydrogel, hydrogel binding		pH 7.5, 4 °C, NaCl 200 mM		binding	binds
rpoD (Escherichia coli, UniProt P00579)	rpoB/rpoC core RNA polymerase (Escherichia coli)	pausing efficiency		adhE TEC		apparent Kd	0.27 µM
MPS3 fragment (Saccharomyces cerevisiae)	HTZ1 (Saccharomyces cerevisiae, UniProt Q12692)	nuclear localisation	yeast	180 min, together with: rapamycin	lower = less nuclear	N/C ratio	0.51 N/C ratio (normalised)
B7 (DMC1)	T1, Psmc3ip/Mnd1 R64A/Y70A/Y71A (Mus musculus)	pull-down				binding	binds
pspA (Escherichia coli, UniProt P0AFM6)	mreB (Escherichia coli, UniProt P0A9X4)	bacterial two-hybrid		30 °C	higher = stronger interaction	LacZ activity	559 ± 183 MU
B8 (Fmnl3 555-954)	ACTA1	AUC				molecule per partner	1 FH2:actin
B9 (kaiA)	kaiC 1-519 R385A (Synechococcus elongatus, UniProt Q79PF4)	priming phosphorylation, SDS-PAGE		0.2 mg/mL, 30 °C, together with: KaiA 0.04 mg/mL	higher = faster	rate constant k1	0.2 h⁻¹
BUD4 fragment (Saccharomyces cerevisiae)	MLC1 (Saccharomyces cerevisiae, UniProt P53141)	two-hybrid			higher = stronger interaction	beta-galactosidase activity	66.08 ± 0.5 Miller units

Repeated from above:
Molecule	partner	test	test system	conditions	how to read	measurement	value
B7 (DMC1)	T1, Psmc3ip/Mnd1 R64A/Y70A/Y71A (Mus musculus)	pull-down				binding	binds
